Results collected from several papers.
Lines come from different studies, so protocols differ. ± gives the spread as reported.
gag-pol reverse transcriptase: Gag-Pol polyprotein, reverse transcriptase (gag-pol, Human immunodeficiency virus 1, UniProt P03366)
Uncharacterized protein: Uncharacterized protein (Equus caballus, UniProt Q38RB9)
Cytochrome P450 2A13: Cytochrome P450 2A13 (Homo sapiens, UniProt Q16696)
Chain of UniProt Q16696 (whole entry, looked up): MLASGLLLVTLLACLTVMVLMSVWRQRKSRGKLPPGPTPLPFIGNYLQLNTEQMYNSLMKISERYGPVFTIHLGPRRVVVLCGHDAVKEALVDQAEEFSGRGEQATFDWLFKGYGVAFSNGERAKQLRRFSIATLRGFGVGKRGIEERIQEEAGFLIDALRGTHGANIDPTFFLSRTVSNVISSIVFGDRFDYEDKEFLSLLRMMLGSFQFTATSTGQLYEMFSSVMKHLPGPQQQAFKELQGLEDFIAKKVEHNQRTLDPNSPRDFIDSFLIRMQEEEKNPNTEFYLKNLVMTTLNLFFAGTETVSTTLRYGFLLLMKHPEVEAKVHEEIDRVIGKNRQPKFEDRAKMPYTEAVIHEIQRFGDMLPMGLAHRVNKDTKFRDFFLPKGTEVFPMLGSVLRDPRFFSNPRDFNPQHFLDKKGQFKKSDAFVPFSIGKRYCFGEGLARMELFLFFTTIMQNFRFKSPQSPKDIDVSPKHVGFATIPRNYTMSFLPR
ACTA1 pyrene-labeled: Actin, alpha skeletal muscle, pyrene-labeled (ACTA1, Oryctolagus cuniculus, UniProt P68135)
Chain of UniProt Q01959 (whole entry, looked up): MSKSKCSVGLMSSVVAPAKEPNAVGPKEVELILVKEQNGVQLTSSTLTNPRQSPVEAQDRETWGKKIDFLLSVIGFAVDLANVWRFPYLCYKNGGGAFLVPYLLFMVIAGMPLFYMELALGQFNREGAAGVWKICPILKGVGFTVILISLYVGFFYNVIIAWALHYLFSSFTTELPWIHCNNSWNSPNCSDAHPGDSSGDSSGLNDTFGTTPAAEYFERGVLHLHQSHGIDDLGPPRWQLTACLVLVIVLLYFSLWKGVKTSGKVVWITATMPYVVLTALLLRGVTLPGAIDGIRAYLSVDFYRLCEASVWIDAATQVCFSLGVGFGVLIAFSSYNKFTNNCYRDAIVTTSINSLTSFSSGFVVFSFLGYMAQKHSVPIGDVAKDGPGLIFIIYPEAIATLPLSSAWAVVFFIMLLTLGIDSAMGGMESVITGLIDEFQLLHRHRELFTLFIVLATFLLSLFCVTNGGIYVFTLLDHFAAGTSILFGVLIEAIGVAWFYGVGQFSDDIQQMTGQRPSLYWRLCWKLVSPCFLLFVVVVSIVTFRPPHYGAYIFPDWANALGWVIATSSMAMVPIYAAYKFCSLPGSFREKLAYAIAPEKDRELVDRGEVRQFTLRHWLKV
Chain of UniProt Q99436 (whole entry, looked up): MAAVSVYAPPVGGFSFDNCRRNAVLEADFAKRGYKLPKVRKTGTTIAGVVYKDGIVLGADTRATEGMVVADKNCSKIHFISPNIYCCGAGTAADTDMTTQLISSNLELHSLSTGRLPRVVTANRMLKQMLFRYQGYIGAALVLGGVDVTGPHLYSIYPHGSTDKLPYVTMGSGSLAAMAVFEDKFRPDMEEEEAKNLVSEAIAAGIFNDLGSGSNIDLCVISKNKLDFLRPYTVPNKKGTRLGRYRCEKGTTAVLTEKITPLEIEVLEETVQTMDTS
Chain of UniProt Q9NZQ7 (whole entry, looked up): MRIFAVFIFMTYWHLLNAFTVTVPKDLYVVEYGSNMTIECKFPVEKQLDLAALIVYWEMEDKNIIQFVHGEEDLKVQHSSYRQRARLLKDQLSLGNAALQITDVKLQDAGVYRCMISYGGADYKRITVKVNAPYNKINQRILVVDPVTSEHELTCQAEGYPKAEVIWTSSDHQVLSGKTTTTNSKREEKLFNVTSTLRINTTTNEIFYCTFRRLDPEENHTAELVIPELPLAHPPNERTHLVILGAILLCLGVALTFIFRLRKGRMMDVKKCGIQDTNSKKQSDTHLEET
Chain of UniProt P03313 (whole entry, looked up): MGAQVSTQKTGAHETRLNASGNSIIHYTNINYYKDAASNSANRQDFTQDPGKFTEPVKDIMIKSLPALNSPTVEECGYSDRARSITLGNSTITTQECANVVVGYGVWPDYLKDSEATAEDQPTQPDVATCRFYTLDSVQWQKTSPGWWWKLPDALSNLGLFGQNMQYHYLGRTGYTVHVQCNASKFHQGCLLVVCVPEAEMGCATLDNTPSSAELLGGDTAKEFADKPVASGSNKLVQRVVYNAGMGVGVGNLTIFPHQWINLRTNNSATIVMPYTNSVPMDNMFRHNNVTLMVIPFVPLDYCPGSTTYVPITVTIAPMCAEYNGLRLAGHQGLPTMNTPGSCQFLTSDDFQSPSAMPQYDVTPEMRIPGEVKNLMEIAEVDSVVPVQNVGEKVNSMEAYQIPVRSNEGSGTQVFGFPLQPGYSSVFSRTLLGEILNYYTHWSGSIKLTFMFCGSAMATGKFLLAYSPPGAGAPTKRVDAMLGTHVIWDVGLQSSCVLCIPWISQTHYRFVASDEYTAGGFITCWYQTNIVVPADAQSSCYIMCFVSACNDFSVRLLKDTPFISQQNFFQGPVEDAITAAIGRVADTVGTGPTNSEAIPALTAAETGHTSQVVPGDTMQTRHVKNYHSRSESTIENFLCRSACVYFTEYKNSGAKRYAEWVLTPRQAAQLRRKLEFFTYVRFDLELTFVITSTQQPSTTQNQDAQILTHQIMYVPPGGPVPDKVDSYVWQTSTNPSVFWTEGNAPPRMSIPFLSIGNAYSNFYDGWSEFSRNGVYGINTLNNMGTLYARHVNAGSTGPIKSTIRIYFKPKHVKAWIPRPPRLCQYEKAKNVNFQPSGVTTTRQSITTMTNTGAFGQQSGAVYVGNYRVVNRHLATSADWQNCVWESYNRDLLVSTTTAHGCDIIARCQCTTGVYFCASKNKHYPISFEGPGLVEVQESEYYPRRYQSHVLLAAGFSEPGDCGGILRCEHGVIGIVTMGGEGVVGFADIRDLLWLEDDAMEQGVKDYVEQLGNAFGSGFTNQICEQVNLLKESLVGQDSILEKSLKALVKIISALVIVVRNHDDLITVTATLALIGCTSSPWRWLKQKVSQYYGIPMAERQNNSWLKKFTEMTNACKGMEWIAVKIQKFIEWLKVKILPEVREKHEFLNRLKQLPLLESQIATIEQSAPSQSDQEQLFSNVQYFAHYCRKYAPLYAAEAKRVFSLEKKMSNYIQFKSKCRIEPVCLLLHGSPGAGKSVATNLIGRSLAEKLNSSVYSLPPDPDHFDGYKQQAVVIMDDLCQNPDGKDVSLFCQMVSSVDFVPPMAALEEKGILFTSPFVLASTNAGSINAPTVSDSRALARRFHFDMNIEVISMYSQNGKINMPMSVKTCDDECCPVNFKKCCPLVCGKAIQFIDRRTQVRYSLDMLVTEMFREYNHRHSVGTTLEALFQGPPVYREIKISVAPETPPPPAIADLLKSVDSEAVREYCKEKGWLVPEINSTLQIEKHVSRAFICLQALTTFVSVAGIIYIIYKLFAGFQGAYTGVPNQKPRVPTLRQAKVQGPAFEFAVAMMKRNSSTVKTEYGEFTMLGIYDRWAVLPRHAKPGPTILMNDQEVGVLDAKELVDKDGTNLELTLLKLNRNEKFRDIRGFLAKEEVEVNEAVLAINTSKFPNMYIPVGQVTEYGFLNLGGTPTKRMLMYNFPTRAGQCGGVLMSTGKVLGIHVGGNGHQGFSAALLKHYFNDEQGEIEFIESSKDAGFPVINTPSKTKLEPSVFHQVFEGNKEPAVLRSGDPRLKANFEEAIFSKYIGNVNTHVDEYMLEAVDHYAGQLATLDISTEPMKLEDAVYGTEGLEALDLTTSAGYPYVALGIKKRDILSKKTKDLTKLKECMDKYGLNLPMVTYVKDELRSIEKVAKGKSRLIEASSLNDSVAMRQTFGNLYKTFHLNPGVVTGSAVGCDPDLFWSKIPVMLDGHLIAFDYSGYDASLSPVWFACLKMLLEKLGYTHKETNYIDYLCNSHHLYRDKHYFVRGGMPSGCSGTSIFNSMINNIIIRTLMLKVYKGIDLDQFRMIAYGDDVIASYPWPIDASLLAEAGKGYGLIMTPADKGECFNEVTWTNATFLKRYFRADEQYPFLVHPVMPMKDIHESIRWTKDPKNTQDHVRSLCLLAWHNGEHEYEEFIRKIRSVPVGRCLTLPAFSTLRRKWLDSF
Chain of UniProt Q00987 (whole entry, looked up): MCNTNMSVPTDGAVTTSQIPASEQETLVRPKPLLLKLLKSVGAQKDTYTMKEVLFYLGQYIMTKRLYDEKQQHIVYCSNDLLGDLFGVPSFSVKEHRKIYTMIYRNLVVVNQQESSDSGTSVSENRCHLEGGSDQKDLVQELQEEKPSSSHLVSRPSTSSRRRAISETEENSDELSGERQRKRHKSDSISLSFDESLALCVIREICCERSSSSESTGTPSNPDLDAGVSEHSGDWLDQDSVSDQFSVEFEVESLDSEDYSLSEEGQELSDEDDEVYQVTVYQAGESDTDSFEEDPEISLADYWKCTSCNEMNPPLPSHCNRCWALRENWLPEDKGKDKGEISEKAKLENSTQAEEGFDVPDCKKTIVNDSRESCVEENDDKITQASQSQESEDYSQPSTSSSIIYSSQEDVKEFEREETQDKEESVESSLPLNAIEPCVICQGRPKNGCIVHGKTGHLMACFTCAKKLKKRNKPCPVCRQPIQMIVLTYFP
Chain of UniProt Q9UKF6 (whole entry, looked up): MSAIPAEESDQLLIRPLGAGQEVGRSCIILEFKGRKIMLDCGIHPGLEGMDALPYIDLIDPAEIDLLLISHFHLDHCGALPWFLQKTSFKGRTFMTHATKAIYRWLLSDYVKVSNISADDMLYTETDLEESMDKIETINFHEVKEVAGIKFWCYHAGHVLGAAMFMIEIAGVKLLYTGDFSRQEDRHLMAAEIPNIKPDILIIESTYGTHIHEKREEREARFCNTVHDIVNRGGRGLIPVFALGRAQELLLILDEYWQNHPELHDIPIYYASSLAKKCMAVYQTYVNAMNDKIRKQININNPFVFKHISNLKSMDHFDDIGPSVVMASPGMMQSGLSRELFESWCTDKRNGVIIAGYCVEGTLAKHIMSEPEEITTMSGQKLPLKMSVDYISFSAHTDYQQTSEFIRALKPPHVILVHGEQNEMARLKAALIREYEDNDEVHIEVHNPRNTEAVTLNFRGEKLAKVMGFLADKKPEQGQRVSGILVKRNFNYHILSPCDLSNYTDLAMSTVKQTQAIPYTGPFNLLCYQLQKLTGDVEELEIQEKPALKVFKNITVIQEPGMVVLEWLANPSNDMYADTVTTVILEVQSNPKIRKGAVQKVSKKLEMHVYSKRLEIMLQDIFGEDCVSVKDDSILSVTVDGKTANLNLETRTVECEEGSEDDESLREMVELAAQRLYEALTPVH

Compound	target	assay	system	setting	IC50 [µM]
CC[C@H](C)[C@H](NC(=O)[C@H](CCSC)NC(=O)[C@@H](NC(=O)[C@H](Cc1c[nH]c2ccccc12)NC(=O)[C@H](Cc1c[nH]c2ccccc12)NC(=O)CNC(C)=O)C(C)C)C(=O)N[C@@H](Cc1ccccc1)C(N)=O	Programmed cell death 1 ligand 1, with PD-1 (CD274, Homo sapiens, UniProt Q9NZQ7)	PD-1/PD-L1 binding, inhibitor, ELISA	–	–	0.57
CC(C)C[C@@H](CNC(=O)N[C@@H](C)CNC(=O)N1CCC[C@H]1C(N)=O)NC(=O)[C@H](C)NC(=O)[C@H](Cc1c[nH]c2ccccc12)NC(=O)[C@H](Cc1ccc(O)cc1)NC(=O)[C@H](CCC(=O)O)NC(=O)[C@H](C)NC(=O)[C@H](Cc1ccccc1)NC(=O)[C@H](CO)NC(=O)[C@@H](N)[C@@H](C)O	Protein Mdm4, with p53 (MDM4, Homo sapiens, UniProt O15151)	p53 binding, TR-FRET	–	–	0.247
COc1cccc(C2SCC(=O)N2c2nc(-c3ccc(S(=O)(=O)N4CCCC4)cc3)cs2)c1 (centres unmarked)	gag-pol reverse transcriptase	–	–	–	> 4
CCOC(=O)[C@H]1Cc2c(cc([N+](=O)[O-])cc2[N+](=O)[O-])[C@@H](O)[C@@]12C(=O)Nc1ccc(C)cc12	E3 ubiquitin-protein ligase Mdm2 (MDM2, Homo sapiens, UniProt Q00987)	–	–	–	0.98 ± 0.07
[N-]=[N+]=NCC1OC(OC2C(N)CC(N)C(OC3OC(CN)C(O)C(O)C3O)C2O)C(O)C(N)C1O (centres unmarked)	MBNL1-DM2 CCUG repeat RNA complex	complex formation, inhibitor, displacement	–	–	200 ± 5
C#CCNC(=O)c1ccc(S(=O)(=O)N[C@@H](CCCCNC(=O)c2cc(OS(=O)(=O)F)cc(C(=O)O)c2)C(=O)N[C@@H](Cc2c[nH]c3ccccc23)C(=O)NC2CCC2)cc1	NAD-dependent protein deacylase sirtuin-5, mitochondrial (SIRT5, Homo sapiens, UniProt Q9NXA8)	inhibitor, fluorogenic	–	4 h preincubation, His-tagged enzyme 150 nM, with: NAD+ 500 µM	30.8 ± 47.8
COc1cccc(C2SCC(=O)N2c2cccc(S(=O)(=O)Nc3nccs3)c2)c1 (centres unmarked)	gag-pol reverse transcriptase	–	–	–	> 4
CC[C@H](C)[C@H](NC(=O)[C@H](CCC(=O)O)NC(=O)[C@H](CC(C)C)NC(=O)[C@H](CC(C)C)NC(=O)[C@H](CCC(N)=O)NC(=O)[C@H](C)NC(=O)[C@H](CCCCN)NC(=O)[C@H](CC(=O)O)NC(=O)[C@@H](N)CC(C)C)C(=O)O	Uncharacterized protein	peptide binding, competitor, competitive radioligand binding	purified horse MHC class I	pH 7	0.059
COC(=O)N(C(=O)N1COC2(C(=O)OC)Cc3cc(Cl)ccc3C2=N1)c1ccc(OC(F)(F)F)cc1 (racemic)	Androgen receptor (Ar, Rattus norvegicus, UniProt P15207)	binding, competitive ligand binding	–	–	> 100
C#Cc1cc2ccc3cccc4ccc(c1)c2c34	Cytochrome P450 2A13	enzyme activity, inhibitor	–	20 min, pH 7.4	> 80
CO/N=C1\C[C@]2(C[C@@H]3C[C@@H](C/C=C(\C)C[C@@H](C)/C=C/C=C4\CO[C@@H]5[C@H](O)C(C)=C[C@@H](C(=O)O3)[C@]45O)O2)O[C@H](/C(C)=C/C(C)C)[C@H]1C	Nuclear receptor subfamily 1 group I member 3 (Homo sapiens, UniProt Q14994)	receptor activity, inhibitor	–	–	8.79 ± 1.35
CO[C@]1([C@@H]2CSC(=O)N2Cc2ccccc2)C[C@H]2C[C@@H](CC[C@H](C)/C=C\C=C\CC/C(C)=C\C(=O)O2)O1	ACTA1 pyrene-labeled	actin polymerization, pyrene actin	–	–	0.333 ± 0.076
CC[C@H](C)[C@H](NC(=O)[C@H](CCC(N)=O)NC(=O)[C@@H]1CCCN1C(=O)[C@H](CO)NC(=O)[C@@H](NC(=O)[C@H](CO)NC(=O)CNC(=O)[C@H](CCC(=O)O)NC(=O)[C@@H](NC(=O)[C@H](CC(=O)O)NC(=O)[C@@H](N)CCCCN)C(C)C)[C@@H](C)O)C(=O)O	Uncharacterized protein	peptide binding, competitor, competitive radioligand binding	purified horse MHC class I	pH 7	0.043
Nc1ccc(-c2ccccc2)cc1	Cytochrome P450 2A13	enzyme activity, inhibitor	–	20 min, pH 7.4	> 200
C[C@@H](NC(=O)[C@@H](N)Cc1ccc(O)cc1)C(=O)NCC(=O)N[C@@H](Cc1ccc(Cl)cc1)C(=O)N(C)CCC[C@@]1(c2ccc(F)cc2)OCc2cc(C#N)ccc21	Mu-type opioid receptor (Oprm1, Rattus norvegicus, UniProt P33535)	–	–	–	0.0145
COc1cc(Nc2ncc(F)c(Nc3ccc4c(n3)NC(=O)C(C)(C)O4)n2)cc(OC)c1OC	imidazoline I2 receptor	–	central	–	> 10
c1ccc2cc3ccccc3cc2c1	Cytochrome P450 2A13	enzyme activity, inhibitor	–	20 min, pH 7.4	> 200
C[C@H]1CN(c2n[nH]c3nc(N[C@H]4CC[C@H](NS(=O)(=O)CCC(F)(F)F)CC4)ncc23)CCO1	Inhibitor of nuclear factor kappa-B kinase subunit alpha (CHUK, Homo sapiens, UniProt O15111)	biochemical	–	–	≥ 20
CN1CCN(CCOc2c(Cl)cc(C(=O)N[C@@H](Cc3ccccc3)C(=O)O)c(O)c2Cl)CC1	Cleavage and polyadenylation specificity factor subunit 3 (CPSF3, Homo sapiens, UniProt Q9UKF6)	pre-mRNA cleavage, inhibitor	HeLa nuclear extract	with: Chimera_1 substrate	2.1
c1cc2ccc3cccc4ccc(c1)c2c34	Cytochrome P450 2A13	enzyme activity, inhibitor	–	20 min, pH 7.4	15 to 80
COc1ccc(C[C@H](NC(=O)[C@H](C)NC(=O)CN2CCOCC2)C(=O)N[C@@H](CCC2CCCCC2)C(=O)[C@@]2(C)CO2)cc1	Proteasome subunit beta type-7 (PSMB7, Homo sapiens, UniProt Q99436)	inhibitor, competitive ABPP	Raji cell lysate	constitutive proteasome β2c	> 10
CO[C@H]1[C@H](O[C@H]([C@H]2O[C@@H](n3ccc(=O)[nH]c3=O)[C@H](O)[C@@H]2O)[C@H](NCCCNC(=O)[C@@H](NC(=O)[C@@H](NC(=O)N[C@H](C(=O)O)C(C)C)[C@@H]2CCN=C(N)N2)[C@@H](OC(=O)CCCCCCCCCCCCN(O)C(=N)N)C(C)C)C(=O)O)O[C@H](CN)[C@H]1O	Undecaprenyl-phosphate alpha-N-acetylglucosaminyl 1-phosphate transferase (wecA, Escherichia coli, UniProt P0AC78)	enzyme activity, inhibitor	–	–	0.09 ± 0.018
CO[C@]1([C@@H]2CSC(=O)N2C2CCCC2)C[C@H]2C[C@@H](CC[C@H](C)/C=C\C=C\CC/C(C)=C\C(=O)O2)O1	ACTA1 pyrene-labeled	actin polymerization, pyrene actin	–	–	1.05 ± 0.271
CC[C@H](C)[C@H](NC(=O)[C@H](CC(C)C)NC(=O)[C@H](CO)NC(=O)[C@H](CC(C)C)NC(=O)[C@H](CO)NC(=O)[C@@H]1CCCN1C(=O)[C@H](CC(=O)O)NC(=O)[C@H](CC(=O)O)NC(=O)[C@H](C)N)C(=O)O	Uncharacterized protein	peptide binding, competitor, competitive radioligand binding	purified horse MHC class I	pH 7	1.07
O=C1CSC(c2ccc(F)cc2)N1c1nc(-c2ccc(S(=O)(=O)N3CCCC3)cc2)cs1 (centres unmarked)	gag-pol reverse transcriptase	–	–	–	> 4
O=[N+]([O-])c1cc(-c2noc(C3CCC3)n2)ccc1NCCCCCCN1C[C@H](O)[C@@H](O)[C@H](O)[C@H]1CO	Ganab (Mus musculus, UniProt Q8BHN3)	enzyme activity, inhibitor	–	with: 4-methylumbelliferyl substrate	< 0.001
CNC(C)Cc1ccc2nonc2c1 (centres unmarked)	Sodium-dependent dopamine transporter (SLC6A3, Homo sapiens, UniProt Q01959)	–	–	–	4 ± 1.5
O=C1CSC(c2cccc(Br)c2)N1c1nc(-c2ccc(S(=O)(=O)N3CCOCC3)cc2)cs1 (centres unmarked)	gag-pol reverse transcriptase	–	–	–	> 4
N/C(=N\C(=O)c1nc(Cl)c(N)nc1N)NCc1ccc(Cl)c(Cl)c1	Genome polyprotein, 3D RNA polymerase (Coxsackievirus B3, UniProt P03313)	RNA polymerase activity, inhibitor, single AMP incorporation	–	no Mg2+ preincubation	15 ± 3

Some of these lines once more:
Compound	target	assay	system	setting	IC50 [µM]
CO[C@]1([C@@H]2CSC(=O)N2Cc2ccccc2)C[C@H]2C[C@@H](CC[C@H](C)/C=C\C=C\CC/C(C)=C\C(=O)O2)O1	ACTA1 pyrene-labeled	actin polymerization, pyrene actin	–	–	0.333 ± 0.076
CC[C@H](C)[C@H](NC(=O)[C@H](CCC(N)=O)NC(=O)[C@@H]1CCCN1C(=O)[C@H](CO)NC(=O)[C@@H](NC(=O)[C@H](CO)NC(=O)CNC(=O)[C@H](CCC(=O)O)NC(=O)[C@@H](NC(=O)[C@H](CC(=O)O)NC(=O)[C@@H](N)CCCCN)C(C)C)[C@@H](C)O)C(=O)O	Uncharacterized protein	peptide binding, competitor, competitive radioligand binding	purified horse MHC class I	pH 7	0.043
Nc1ccc(-c2ccccc2)cc1	Cytochrome P450 2A13	enzyme activity, inhibitor	–	20 min, pH 7.4	> 200
C[C@@H](NC(=O)[C@@H](N)Cc1ccc(O)cc1)C(=O)NCC(=O)N[C@@H](Cc1ccc(Cl)cc1)C(=O)N(C)CCC[C@@]1(c2ccc(F)cc2)OCc2cc(C#N)ccc21	Mu-type opioid receptor (Oprm1, Rattus norvegicus, UniProt P33535)	–	–	–	0.0145
